{"data": "Published values gathered from unrelated publications", "note": "Parts stem from different laboratories: compare values within a part only. Changes are numbered by the printed parent chain."}
{"data": "Study 1", "target": "Histone acetyltransferase KAT6A, winged helix 1, GST fusion (KAT6A, Homo sapiens, UniProt Q92794, residues 1-85)", "technique": "protein binding microarray", "form": "double-stranded DNA, one strand shown", "matrix": "in vitro", "concentration": "not given", "notes": "8-mer, flanks averaged, mean of 2 arrays, mostly near background", "baseline": "not given", "direction": "higher = stronger binding", "Construct (chain)": "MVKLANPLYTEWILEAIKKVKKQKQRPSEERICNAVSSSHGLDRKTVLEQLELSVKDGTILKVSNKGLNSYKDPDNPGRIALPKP"}
{"Oligonucleotide": "CAATTTTA", "E-score": -0.135}
{"Oligonucleotide": "CCCTACCC", "E-score": 0.0561}
{"Oligonucleotide": "AAAACGTA", "E-score": -0.149}
{"Oligonucleotide": "AAGGTTTG", "E-score": -0.146}
{"Oligonucleotide": "TGCTCTAA", "E-score": -0.00248}
{"Oligonucleotide": "AATTACGG", "E-score": 0.273}
{"Oligonucleotide": "ACAATGCC", "E-score": 0.0877}
{"Oligonucleotide": "CCCTAAGA", "E-score": -0.287}
{"Oligonucleotide": "CGTTGCCC", "E-score": 0.199}
{"Oligonucleotide": "ATTGGCCA", "E-score": -0.0651}
{"Oligonucleotide": "GGGCAGTA", "E-score": 0.0194}
{"Oligonucleotide": "CGAGGTAG", "E-score": -0.0436}
{"Oligonucleotide": "CTCGCGGC", "E-score": 0.448}
{"Oligonucleotide": "AAAGAGAC", "E-score": -0.232}
{"data": "Study 2", "target": "Interferon regulatory factor 7, full length, phosphomimetic (IRF7, Homo sapiens, UniProt Q92985, residues 1-503, S101K/S471D/S472D/S475D/S476D/S477D/S483D/S484D/S487D)", "technique": "protein-binding microarray", "form": "double-stranded DNA, one strand shown", "matrix": "in vitro", "concentration": "250 nM", "notes": "60-bp whole probe", "together with": "salmon DNA 0.4 mg/ml", "baseline": "random background probes", "direction": "higher = stronger binding", "constant ends, left off below": "GCCTAGCAC … GTCTTGATTCGCTTGACGCTGCTG", "Target sequence (chain)": "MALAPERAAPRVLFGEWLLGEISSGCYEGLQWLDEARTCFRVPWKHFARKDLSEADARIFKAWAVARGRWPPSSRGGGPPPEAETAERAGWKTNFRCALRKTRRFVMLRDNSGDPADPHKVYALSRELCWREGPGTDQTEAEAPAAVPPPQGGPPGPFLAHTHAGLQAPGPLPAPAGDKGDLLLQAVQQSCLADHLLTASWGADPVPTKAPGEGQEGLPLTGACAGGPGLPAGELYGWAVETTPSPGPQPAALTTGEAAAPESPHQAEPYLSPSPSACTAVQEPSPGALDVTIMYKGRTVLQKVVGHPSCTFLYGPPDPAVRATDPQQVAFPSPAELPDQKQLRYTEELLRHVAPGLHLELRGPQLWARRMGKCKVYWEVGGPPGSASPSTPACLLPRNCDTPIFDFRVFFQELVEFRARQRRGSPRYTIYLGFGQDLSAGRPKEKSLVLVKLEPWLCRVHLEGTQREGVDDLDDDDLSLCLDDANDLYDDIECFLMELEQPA"}
{"Oligonucleotide": "TTAGATTTCAGAATGGATTAGTGCTAG", "log fluorescence": "0.311 z-score"}
{"Oligonucleotide": "TCAAATTAGTGTTTTGCACTGTGCTAG", "log fluorescence": "-0.228 z-score"}
{"Oligonucleotide": "TCATATGTATATATGTGACTGTGCTAG", "log fluorescence": "0.132 z-score"}
{"Oligonucleotide": "GCAAGAACAGCTGGTGGGCAGTGCTAG", "log fluorescence": "-0.843 z-score"}
{"Oligonucleotide": "CATCCTGAGTCAAGTCAAGTGTGCTAG", "log fluorescence": "0.213 z-score"}
{"Oligonucleotide": "TAAGATTTCAGACTGGATTAGTGCTAG", "log fluorescence": "0.336 z-score"}
{"Oligonucleotide": "TTAGGTTTCGACTTTCGGTAAGTGCTA", "log fluorescence": "11.3 z-score"}
{"Oligonucleotide": "GACGGACTGGACTATCGGGATGTGCTA", "log fluorescence": "-0.762 z-score"}
{"Oligonucleotide": "TTAGATATCAGTTTCGCTTAGTGCTAG", "log fluorescence": "6.52 z-score"}
{"Oligonucleotide": "GACGATTTCAGGTTTCGAGACGTGCTA", "log fluorescence": "3.79 z-score"}
{"Oligonucleotide": "GACGATCTCTGACTGGAGACGTGCTAG", "log fluorescence": "-0.332 z-score"}
{"Oligonucleotide": "TTAGGACTGGACTATCGGTTGGTGCTA", "log fluorescence": "-0.352 z-score"}
{"Oligonucleotide": "ATATCTAAAAAGTCTCTGGGAGTGCTA", "log fluorescence": "1.26 z-score"}
{"Oligonucleotide": "GACGATTTCAGTATCGAGATGTGCTAG", "log fluorescence": "0.416 z-score"}
{"Oligonucleotide": "GACGGACTGGGTATCGGGACGTGCTAG", "log fluorescence": "-0.134 z-score"}
{"Oligonucleotide": "CCTTGTGTTACTTTCTACTTGTGCTAG", "log fluorescence": "0.441 z-score"}
{"data": "Study 3", "target": "RING finger protein unkempt homolog, zinc fingers 1-6, GST-SBP tag (UNK, Homo sapiens, UniProt Q9C0B0, residues 30-357)", "technique": "RNA Bind-n-Seq", "form": "RNA", "matrix": "in vitro", "concentration": "not given", "notes": "RNA with constant flanks, ends assumed", "baseline": "input RNA pool", "direction": "higher = stronger binding", "chain of UniProt Q9C0B0 (30-357, looked up)": "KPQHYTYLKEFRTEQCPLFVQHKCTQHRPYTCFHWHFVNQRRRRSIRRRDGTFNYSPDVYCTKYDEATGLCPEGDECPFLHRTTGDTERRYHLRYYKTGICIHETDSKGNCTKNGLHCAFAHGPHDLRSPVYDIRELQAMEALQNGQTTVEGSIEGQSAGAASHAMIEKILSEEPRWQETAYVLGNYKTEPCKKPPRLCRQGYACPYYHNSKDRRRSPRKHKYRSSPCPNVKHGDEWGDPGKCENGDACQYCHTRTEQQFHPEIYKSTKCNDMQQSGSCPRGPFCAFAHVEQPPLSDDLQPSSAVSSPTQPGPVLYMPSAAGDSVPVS"}
{"Oligonucleotide": "GGGAGUUCUACAGUCCGACGAUCGAAUACAUUGAUCAAGGUCGGAAUCCCCAGCUCUACACCAAAGAAUGCCUGGAGAGGGCUCCCGCUAAAAACGAGCAAGUCAAGGGCAAGAUCGACACAAUGAAGAAAUUUAAAAGCCUACAACAGAGGAUUGAGCAUCA", "bound/input enrichment": "0.275 ratio"}
{"Oligonucleotide": "GGGAGUUCUACAGUCCGACGAUCAUACAAGCCUUACCAACAAUUACAGAAACAUUAAACACUAUGACACAUUACCUUUUCCGCUAUUUUUAAUAGUCUUCUAUUUUCACUCUUGAUAAGCUUAUAAAAUCAUGAUUGAAUCAGCAACAGAGGAUUGAGCAUCA", "bound/input enrichment": "1.66 ratio"}
{"Oligonucleotide": "GGGAGUUCUACAGUCCGACGAUCCAUCACCGGGUGGGCGAGAUGGCUCCACCCAAUGCCUACACUGUCACCGACUUGGUGGAGUACCGCAUCAUCAUAGAACAGCUCUCCAAUGGCAAGUGGGUCCCCUUUGAUGGUGAUGACCAACAGAGGAUUGAGCAUCA", "bound/input enrichment": "0.279 ratio"}
{"Oligonucleotide": "GGGAGUUCUACAGUCCGACGAUCUUCACCACUCCUGGGUGCAUGAUUGAGGGUGAAGCAUCCACCAGCACUUCAAGGGGUCCACCGUAUUUUUUUUUUUGCUGCCUCAAAGUCCCCAAAGCCUUCGAGCAGAAGUGGCAGUAGCAACAGAGGAUUGAGCAUCA", "bound/input enrichment": "0.628 ratio"}
{"data": "Study 4", "target": "ABI1, truncated, D143A, DHFR fusion (Arabidopsis thaliana)", "technique": "DHFR PCA, deep sequencing", "matrix": "yeast", "notes": "methotrexate growth selection, single substitutions", "together with": "(+)-ABA 0.11 µM", "baseline": "wild-type fitted maximum", "direction": "higher = stronger binding", "parent": "PYL1, truncated, DHFR fusion (Arabidopsis thaliana); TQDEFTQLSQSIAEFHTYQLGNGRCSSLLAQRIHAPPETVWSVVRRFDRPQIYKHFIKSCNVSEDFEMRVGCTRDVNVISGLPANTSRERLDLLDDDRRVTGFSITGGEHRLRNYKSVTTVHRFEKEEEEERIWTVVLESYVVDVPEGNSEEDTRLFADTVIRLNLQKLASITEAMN; partner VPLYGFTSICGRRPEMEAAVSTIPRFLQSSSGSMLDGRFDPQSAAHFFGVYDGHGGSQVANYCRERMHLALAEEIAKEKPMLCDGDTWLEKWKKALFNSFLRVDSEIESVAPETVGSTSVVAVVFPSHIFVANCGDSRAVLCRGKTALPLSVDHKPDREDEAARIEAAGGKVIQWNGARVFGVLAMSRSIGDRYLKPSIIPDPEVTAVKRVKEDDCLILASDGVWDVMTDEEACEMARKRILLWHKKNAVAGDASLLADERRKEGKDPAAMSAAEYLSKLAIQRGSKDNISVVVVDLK"}
{"Substitution": "T160R", "relative binding score [%]": -1.9}
{"Substitution": "C72N", "relative binding score [%]": 8.92}
{"Substitution": "D75Q", "relative binding score [%]": 46.9}
{"Substitution": "T135E", "relative binding score [%]": -9.26}
{"Substitution": "G23R", "relative binding score [%]": 26.2}
{"Substitution": "I133V", "relative binding score [%]": 61}
{"Substitution": "R45C", "relative binding score [%]": 4.49}
{"Substitution": "R99F", "relative binding score [%]": 73.5}
{"Substitution": "A30N", "relative binding score [%]": -3.04}
{"Substitution": "S27H", "relative binding score [%]": 8.05}
{"Substitution": "N149L", "relative binding score [%]": 26.5}
{"Substitution": "K58T", "relative binding score [%]": 2.38}
{"data": "Study 5", "target": "RNA binding protein fox-1 homolog 2, RRM domain, GST-SBP tag (RBFOX2, Homo sapiens, UniProt O43251-10, residues 100-194)", "technique": "RNA Bind-n-Seq", "form": "RNA", "matrix": "in vitro", "concentration": "365 nM", "notes": "natural RNA segment, single round, ends assumed", "baseline": "no-protein control", "direction": "higher = stronger binding", "constant ends, left off below": "GGGAGUUCUACAGUCCGACGAUC … UGGAAUUCUCGGGUGCCAA", "Target sequence (chain)": "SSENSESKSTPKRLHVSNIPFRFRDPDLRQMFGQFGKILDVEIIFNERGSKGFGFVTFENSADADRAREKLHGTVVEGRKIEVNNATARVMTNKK"}
{"Oligonucleotide": "UAUGUCAGUUAGCUAAAACUUCAGAAUACAUUUCUCCCUAUAAAGAGUUAUAAAUGAUGGUUUAGUUCUCAGGCAGCUACAAAUGCCUAUUUAUUCCCUAAUGUACCUGA", "RBNS enrichment (R)": 0.248}
{"Oligonucleotide": "GGGUUUUCAGAGUGAUUUUCAGGUUUAAUUUCACUGCCUUUCAUAAGGGUAAAGUUUCACAGCUGACAUUAGCCUGAGGAUUAGCACUAAAGAGCUGUGUUUUCAUAGCA", "RBNS enrichment (R)": 0.598}
{"Oligonucleotide": "AGUGGGUGAGUGGGGAUGACCUGGCUUCCAAGAGGACUGUCACUGUGGACACCAAAAUGGCUUAACUGAGAUACAGUGAAAACAUGACAAAUAAACCAACUUUUUACAAG", "RBNS enrichment (R)": 0.294}
{"Oligonucleotide": "GUGUUUUGUUUUACUGUACUAAGAACUUGUCCUUUCUCCUUGAAUCAAAGUAGGACAUGCAUCAUCCUCCUAAUUUUAAAUGUUGGCUCUGAUUUUAAAGUGGUGCAUUU", "RBNS enrichment (R)": 0.648}
{"Oligonucleotide": "CCUCCUGCAUUUGUUGAUACCACUAACAAAAUGCUUUGUAACAGACUUGCGGUUAAUUAUGCAAAUGAUAGUUUGUGAUAAUUGGUCCAGUUUUACGAACAACAGAUUUC", "RBNS enrichment (R)": 0.27}
{"Oligonucleotide": "UGGUCGUAGAACCUUUUCCAAACAGAAGCAUCUGCCUUUGGCUGUUCUGUGACCUUUGAAGCCAGUCUCAGUGGUUUAGGCAGCUUUGCAGUUCUAACUCUAGCUAGAGG", "RBNS enrichment (R)": 0.326}
{"Oligonucleotide": "CCCCCAGACACCAUUCACCGACCCACUGCAGGCUGUCCUCCAACCAUGGGGUGGCCACUCCACCCGCAGCCAGACUCCCCGCUCCCCACUUUUCAUGCAGGCUGGCAUAC", "RBNS enrichment (R)": 1.23}
{"Oligonucleotide": "CCAUAGGUCAUCCUCAACAACCCAGAGGGUCCCUGCUCUGACAUCCUAGUCCCCGUGAGCCCUGCAGAGCCCAGUGGAGUACCCUCCCAAUAAAGGCUGUGGCGAGGCUG", "RBNS enrichment (R)": 0.187}
{"Oligonucleotide": "ACAUGGCAAAGAUUGUAUGAAAUACCUGUUUUUCAGAAAAUAAAGGUUCAGUCUCAAAAGAUACAGCUUUAAGUUCUGAAUUUAUUGGUCAAAAUAGAUUUUGGAAAACU", "RBNS enrichment (R)": 0.526}
{"Oligonucleotide": "ACUAGAUAUACGUUUUUAAAUUUAACAUCUGGCUGGACAGUGUUCUAUUAACUCAUUGAAUGUGUUUCCUUUGUCUUGUGUUAAUAAAUAUUGAUGCCUGAUUCUGUUUA", "RBNS enrichment (R)": 1.12}
{"Oligonucleotide": "CAAUUUGGAAUCAGAAAGCUGGAUUCUGGUAAAUGGUCUUGUGCCCUUUAUCCUACUCAUCCCCGAUCUGGUCCCCUGUUCUCCAUAGUCCUUCACCCCCAAGCACCACU", "RBNS enrichment (R)": 0.244}
{"Oligonucleotide": "UCACUGUGCCAGAGCAAGCACGCUGAGAAGGCUAGUCUCCAUAGUUGAUGGUUAAUGUUACUUCCACAAAAUAUGUGAAUUUGCUGCUUCUGAGAGGCAAUGUGAAAGAG", "RBNS enrichment (R)": 0.847}
{"note": "Some of these lines once more (study 1):"}
{"Oligonucleotide": "TGCTCTAA", "E-score": -0.00248}
{"Oligonucleotide": "CTCGCGGC", "E-score": 0.448}
{"Oligonucleotide": "AAAACGTA", "E-score": -0.149}
{"Oligonucleotide": "AAAGAGAC", "E-score": -0.232}
{"Oligonucleotide": "CAATTTTA", "E-score": -0.135}
{"Oligonucleotide": "AATTACGG", "E-score": 0.273}
{"Oligonucleotide": "CCCTAAGA", "E-score": -0.287}
{"Oligonucleotide": "ATTGGCCA", "E-score": -0.0651}
